{"data": "Measurements from different studies", "organism": "Escherichia coli", "note": "Protocols differ between the studies behind these lines."}
{"SMILES": "CC[C@H](C)[C@H](NC(=O)[C@@H](Cc1ccccc1)NC)C(=O)N[C@@H](CO)C(=O)N[C@H](CCC(N)=O)C(=O)N[C@@H](C(=O)N[C@H](C(=O)OC[C@H](N)C(=O)N[C@H]1C(=O)N[C@@H](C)C(=O)N[C@@H](C2CCCCC2)C(=O)N[C@@H]([C@@H](C)CC)C(=O)O[C@H]1C)[C@@H](C)CC)[C@@H](C)CC", "assay": "broth microdilution", "test system": "ATCC 10798, Mueller-Hinton broth", "setting": "16 h, 37 °C", "MIC": "> 8 µg/mL"}
{"SMILES": "CC[C@H](C)[C@@H]1NC(=O)[C@@H]2CSSC[C@@H]3NC(=O)[C@H](C(C)C)NC(=O)CNC(=O)CNC(=O)[C@H](CCCNC(=N)N)NC(=O)[C@H](CCCNC(=N)N)NC(=O)CNC(=O)[C@H](C(C)C)NC(=O)[C@@H]4CSSC[C@H](NC(=O)[C@H](CC(C)C)NC(=O)[C@H](CCCNC(=N)N)NC(=O)CNC(=O)CNC(=O)[C@H](CO)NC(=O)CNC(=O)[C@H](CO)NC(=O)CNC(=O)[C@@H]5CSSC[C@H](NC(=O)[C@H](CC(=O)O)NC(=O)[C@H](CO)NC(=O)[C@H](CC(=O)O)NC(=O)[C@H](CCCNC(=N)N)NC(=O)[C@H](CCCNC(=N)N)NC(=O)[C@H](CSSC[C@H](NC1=O)C(=O)N[C@@H](CCCNC(=N)N)C(=O)NCC(=O)N[C@@H](CC(N)=O)C(=O)NCC(=O)N[C@@H](Cc1ccc(O)cc1)C(=O)N5)NC(=O)[C@H](CCCNC(=N)N)NC(=O)[C@H](CCC(N)=O)NC(=O)[C@H](CC(C)C)NC(=O)[C@H]([C@@H](C)CC)NC(=O)[C@H](CCCCN)NC(=O)[C@@H]1CCCN1C3=O)C(=O)N1CCC[C@H]1C(=O)NCC(=O)N[C@@H](C)C(=O)N2)C(=O)N[C@@H](Cc1ccc(O)cc1)C(=O)N[C@H]1CSSC[C@H](NC(=O)[C@H](Cc2ccccc2)NC(=O)[C@H](CCCNC(=N)N)NC(=O)[C@H](CCCNC(=N)N)NC(=O)[C@H](CCCNC(=N)N)NC1=O)C(=O)N[C@@H](C(C)C)C(=O)N4", "test system": "K12, CAMHB", "MIC": "0.8 µM"}
{"SMILES": "CC[C@H](C)[C@H](NC(=O)[C@H](C)NC(=O)[C@@H](NC(=O)[C@H](CC(=O)O)NC(=O)[C@H](CCCCN)NC(=O)[C@H](CO)NC(=O)[C@@H](NC(=O)[C@H](CC(N)=O)NC(=O)[C@H](C)NC(=O)[C@@H](NC(=O)[C@H](CCC(=O)O)NC(=O)[C@H](CCCCN)NC(=O)[C@@H](NC(=O)[C@@H](NC(=O)[C@H](Cc1c[nH]cn1)NC(=O)[C@H](CCCCN)NC(=O)[C@@H](NC(=O)[C@H](CCCCN)NC(=O)[C@H](CCCCN)NC(=O)[C@@H](NC(=O)[C@H](CC(C)C)NC(=O)[C@H](CCCCN)NC(=O)[C@H](CC(N)=O)NC(=O)[C@H](Cc1ccccc1)NC(=O)[C@H](CCCNC(=N)N)NC(=O)[C@H](CCCCN)NC(=O)[C@H](CCCNC(=N)N)NC(=O)[C@H](Cc1ccccc1)NC(=O)CN)C(C)C)C(C)C)[C@@H](C)O)[C@@H](C)CC)[C@@H](C)O)C(C)C)C(C)C)C(=O)N[C@H](C(=O)N[C@@H](C)C(=O)NCC(=O)N[C@@H](CO)C(=O)NCC(=O)N[C@H](C(=O)N[C@@H](C)C(=O)N[C@H](C(=O)NCC(=O)N[C@@H](C)C(=O)N[C@@H](C)C(=O)N[C@@H](CCSC)C(N)=O)C(C)C)C(C)C)C(C)C", "test system": "isolate RKI 131/03, CAMHB", "MIC": "4 µg/mL"}
{"SMILES": "N=C(N)NCCC[C@@H]1NC(=O)[C@H](CCCNC(=N)N)NC(=O)[C@H](CCCNC(=N)N)NC(=O)[C@H](CCCNC(=N)N)NC(=O)[C@H](Cc2c[nH]c3ccccc23)NC(=O)[C@H](CCCNC(=N)N)NC(=O)[C@H](CCCNC(=N)N)NC(=O)[C@@H](N)CCn2cc(nn2)C[C@@H](C(N)=O)NC1=O", "test system": "ATCC 25922", "setting": "24 h, 37 °C", "MIC": "125 µg/mL"}
{"SMILES": "CCCCCCCCCCCCCCCCCC(=O)N[C@@H](CCCCN)C(=O)N[C@@H](CCCCN)C(=O)N(CCCCN)CC(=O)N[C@@H](CCCCN)C(=O)N[C@@H](CCCCN)C(N)=O", "assay": "broth microdilution", "test system": "K12, water pH 7", "setting": "18 h, 37 °C", "MIC": "8 µg/mL"}
{"SMILES": "CCCCCCCCCCCCCC(=O)N[C@@H](CCCCN)C(=O)N[C@@H](CCCCN)C(=O)N[C@@H](CCCCN)C(=O)N[C@@H](CCCCN)C(=O)N[C@@H](CCCCN)C(N)=O", "assay": "broth microdilution", "test system": "K12", "setting": "16-24 h, 37 °C, prepared at pH 7", "MIC": "32 µg/mL"}
{"SMILES": "CCC(CC)c1cc(C2CN3CCC2CC3CNC)nc(-c2ccncc2)n1 (centres unmarked)", "assay": "microbial growth, broth dilution", "test system": "ATCC25922", "MIC": "64 µg/mL"}
{"SMILES": "CC(C)C[C@H](NC(=O)[C@H](CCCCN)NC(=O)[C@H](CCCCNC(=O)[C@H](CC(C)C)NC(=O)[C@H](CCCCN)NC(=O)[C@H](CCCCNC(=O)[C@H](CC(C)C)NC(=O)[C@H](CCCCN)NC(=O)[C@H](CCCCNC(=O)[C@H](CC(C)C)NC(=O)[C@@H](N)CCCCN)NC(=O)[C@H](CC(C)C)NC(=O)[C@@H](N)CCCCN)NC(=O)[C@H](CC(C)C)NC(=O)[C@H](CCCCN)NC(=O)[C@H](CCCCNC(=O)[C@H](CC(C)C)NC(=O)[C@@H](N)CCCCN)NC(=O)[C@H](CC(C)C)NC(=O)[C@@H](N)CCCCN)NC(=O)[C@H](CC(C)C)NC(=O)[C@H](CCCCN)NC(=O)[C@H](CCCCNC(=O)[C@H](CC(C)C)NC(=O)[C@H](CCCCN)NC(=O)[C@H](CCCCNC(=O)[C@H](CC(C)C)NC(=O)[C@@H](N)CCCCN)NC(=O)[C@H](CC(C)C)NC(=O)[C@@H](N)CCCCN)NC(=O)[C@H](CC(C)C)NC(=O)[C@H](CCCCN)NC(=O)[C@H](CCCCNC(=O)[C@H](CC(C)C)NC(=O)[C@@H](N)CCCCN)NC(=O)[C@H](CC(C)C)NC(=O)[C@@H](N)CCCCN)C(N)=O", "assay": "broth microdilution", "test system": "W3110", "setting": "37 °C", "MIC": "1 µg/mL"}
{"SMILES": "CC(C)[C@@H]1NC(=O)[C@@H]2CCCN2C(=O)[C@@H](C)NC(=O)[C@H](CO)NC(=O)[C@H](C)NC(=O)[C@H](C(C)(C)C)NC(=O)[C@H](CCO)NC(=O)[C@H](Cc2c[nH]c3ccccc23)NC(=O)[C@H](CCO)NC(=O)[C@@H](CCN)NC(=O)[C@H](CCC(N)=O)NC(=O)[C@H](CCN)NC(=O)[C@H](Cc2ccc(O)cc2)NC(=O)[C@H]([C@@H](C)O)NC1=O", "assay": "broth microdilution", "test system": "mcr-1, colistin-resistant, CAMHB with 0.002% polysorbate-80", "setting": "16 h, 37 °C", "MIC": "> 64 µg/mL"}
{"SMILES": "CC[C@H](C)[C@H](NC(=O)[C@H](CO)NC(=O)[C@H](CO)NC(=O)[C@H](Cc1ccccc1)NC(=O)CN)C(=O)N[C@@H](Cc1ccccc1)C(=O)N[C@@H](CCCNC(=N)N)C(=O)NCC(=O)N[C@H](C(=O)N[C@@H](C)C(=O)N[C@@H](CCCCN)C(=O)N[C@@H](Cc1ccccc1)C(=O)N[C@@H](C)C(=O)N[C@@H](CO)C(=O)N[C@@H](CCCCN)C(=O)NCC(=O)N[C@@H](CC(C)C)C(=O)NCC(=O)N[C@@H](CCCCN)C(=O)N[C@@H](CC(=O)O)C(=O)N[C@@H](CC(C)C)C(=O)N[C@@H](C)C(=O)N[C@@H](CCCNC(=N)N)C(N)=O)C(C)C", "test system": "ATCC 8739", "setting": "added: 2.5 mM CaCl2", "MIC": "> 128 µM"}
{"SMILES": "CC(C)[C@H](NC(=O)[C@@H](NC(=O)[C@H](CCCCN)NC(=O)CNC(=O)[C@@H](NC(=O)[C@@H](NC(=O)[C@H](CO)NC(=O)[C@@H](NC(=O)[C@@H](NC(=O)[C@@H]1CCCN1C(=O)[C@@H](NC(=O)[C@@H](NC(=O)CN)C(C)C)C(C)C)C(C)C)C(C)C)C(C)C)C(C)C)C(C)C)C(N)=O", "assay": "broth microdilution", "test system": "K12", "MIC": "> 100 µM"}
{"SMILES": "OB(O)c1ccc(OCc2ccccc2)nc1F", "assay": "bacterial growth", "test system": "TEM-3 ESBL clinical isolate", "setting": "cefotaxime alone", "MIC": "4 µg/mL"}
{"SMILES": "CC[C@H](C)[C@H](NC(=O)[C@H](CCCN)NC(=O)[C@H](CC(N)=O)NC(=O)[C@H](CC(C)C)NC(=O)[C@H](Cc1ccccc1)NC(=O)[C@H](CCCN)NC(=O)[C@H](CCCCNC(=N)N)NC(=O)[C@H](CC(C)C)NC(=O)[C@H](CC(C)C)NC(=O)[C@H](CCCN)NC(=O)[C@H](CCCCNC(=N)N)NC(=O)[C@H](CC(C)C)NC(=O)CNC(C)=O)C(=O)N[C@@H](CCCN)C(=O)N[C@@H](CCCCNC(=N)N)C(N)=O", "assay": "broth microdilution", "test system": "ATCC 25922", "MIC": "3.12 µM"}
{"SMILES": "CCCCCCCCCCCCCCCCSCC1OC(OC2C(N)CC(N)C(OC3OC(CN)C(O)CC3N)C2O)C(O)C(N)C1O (centres unmarked)", "test system": "BL21(DE3)", "MIC": "18.8 µg/mL"}
{"SMILES": "Cc1cc(N)c2cc(NC(=O)c3ccc4cc(C5CC5)ccc4c3)ccc2n1", "test system": "hyperporinated wild type", "MIC": "50 µM"}
{"SMILES": "CCCCCCCCCCCCCC(=O)N[C@H](CCN)C(=O)N[C@@H]1C(=O)N[C@@H](CCN)C(=O)N[C@@H](CC(C)C)C(=O)N[C@@H](CCN)C(=O)N[C@H](Cc2ccccc2)C(=O)N[C@@H](CC(C)C)C(=O)N[C@@H](CCN)C(=O)N[C@H](CCN)C(=O)N[C@@H](C(C)C)C(=O)N[C@@H](CC(=O)O)C(=O)O[C@@H]1C", "assay": "broth microdilution", "test system": "MG1655-mcr-1, colistin-resistant", "MIC": "2 µg/mL"}
{"SMILES": "CC(=O)OCc1cc(-c2nc3ccccc3n(-c3ccc([N+](=O)[O-])cc3[N+](=O)[O-])c2=O)nn1-c1ccccc1", "assay": "microbial growth", "test system": "MDR", "MIC": "64.5 µg/mL"}
{"SMILES": "CC1C(=NNC(=O)c2ccncc2)C(C)C(c2ccc(Cl)cc2)OC1c1ccc(Cl)cc1 (centres unmarked)", "assay": "microbial growth, broth dilution", "test system": "MTCC443", "setting": "24 h", "MIC": "12.5 µg/mL"}
{"SMILES": "Cc1cc(N)c2cc(NC(=O)c3ccc4cc(C(=O)N5CCN(C)CC5)ccc4c3)ccc2n1", "test system": "ΔtolC efflux-deficient", "MIC": "> 200 µM"}
{"SMILES": "CN[C@H](CC(C)C)C(=O)N[C@H]1C(=O)N[C@@H](CC(N)=O)C(=O)N[C@H]2C(=O)N[C@H]3C(=O)N[C@H](C(=O)N[C@H](C(=O)NCc4cn(CCOCCOCCOCCC(=O)N[C@H](C(=O)N[C@@H](CCN)C(=O)N[C@H]5CCNC(=O)[C@H]([C@@H](C)O)NC(=O)[C@H](CCN)NC(=O)[C@H](CCN)NC(=O)[C@H](CC(C)C)NC(=O)[C@@H](CC(C)C)NC(=O)[C@H](CCN)NC5=O)[C@@H](C)O)nn4)c4cc(O)cc(O)c4-c4cc3ccc4O)[C@H](O)c3ccc(c(Cl)c3)Oc3cc2cc(c3O[C@@H]2O[C@H](CO)[C@@H](O)[C@H](O)[C@H]2O[C@H]2C[C@](C)(N)[C@H](O)[C@H](C)O2)Oc2ccc(cc2Cl)[C@H]1O", "assay": "broth microdilution", "test system": "ATCC 25922", "setting": "18 to 20 h, 37 °C, 0.002% polysorbate 80", "MIC": "32 µg/mL"}
